Measurements of several laboratories.
Each line is one published result; not all experiments were run side by side. Values joined by “and” are separate records of one study, mostly repeats; a detail may differ. Numbers after ± are the reported error.

`CC(C)(C)NCCc1c[nH]c2cccc(O)c12.CC(C)(C)NCCc1c[nH]c2cccc(O)c12.O=C(O)/C=C/C(=O)O` gave a distance travelled of 2940 ± 426 cm (C57BL/6J mice; subcutaneous, 10 mg/kg, 30 min).
`COC(=O)[C@H]1[C@@H](OC(=O)c2ccccc2)C[C@@H]2CC[C@H]1N2C` — result for acetylcholine signal: “increased” (mouse, nucleus accumbens; i.p., 20 mg/kg, single injection).
Under “head twitch count”, `O=C(O)/C=C/C(=O)O.Oc1cccc2[nH]cc(CCNC3CCCCC3)c12` is recorded as 5.7 ± 0.6 (C57BL/6J mice; subcutaneous, 0.03 mg/kg).
The fold reduction of `C[C@]12CC[C@H]3[C@@H](CC=C4CC(O)CC[C@@]43CO)[C@@H]1CCC2O` (stereo partly drawn) is reported as about 1.2 fold (measured: VEGF; rat, GAN diet-induced MASH, plasma, pooled; dose not given; reference: vehicle).
Under dopamine level, `CCCC(C(=O)c1ccc2c(c1)OCO2)N1CCCC1.Cl` (racemic) is recorded as “no effect” (HPLC-ECD; rat, striatum postmortem; subcutaneous, 4 mg/kg).
For `NCCc1ccc(Oc2ccc(O)cc2)c(I)c1`, “maximum body temperature change” read -5.6 ± 1 °C (TAAR1 knock-out mice; ip, 50 mg/kg, 60 min; reference: saline).
Under “minimum efficacious dose”, `NCC1(CC(=O)O)CCCCC1` is recorded as 30 mg/kg (thermal hyperalgesia; rat, chronic constriction injury; oral, tested 10 to 300 mg/kg).
For `CN1CC[C@]23c4c5ccc(O)c4O[C@H]2[C@@H](O)C=C[C@H]3[C@H]1C5`, the inhibition was about 98% (acetic acid-induced writhing; ICR mice; intraperitoneal, 10 mg/kg, 0.25 h, writhing counted over 15 min, together with: 0.6% acetic acid).
For `CC1(C)C(C(=O)c2cn(CCCCCF)c3ccccc23)C1(C)C`, the ED50 was 3.5 µmol/kg (Δ9-THC discrimination substitution; C57BL/6J male mice; ip, 30 min pre-session, together with: trained on 5.6 mg/kg Δ9-THC).
`CC(C)NCCc1c[nH]c2cccc(O)c12.O=C(O)/C=C/C(=O)O`: “head twitch count” 23.2 ± 1.7 (C57BL/6J mice; subcutaneous, 10 mg/kg).
`C=CCN1CC[C@]23c4c5ccc(O)c4O[C@H]2C(=O)CC[C@@]3(O)[C@H]1C5`: “maximum possible effect” 11.6% and 8.1% and 5.37% and 2.19% and -29.5% and 7.8% (antinociception, hot plate; male ICR-CD1 mice; subcutaneous, 5 mg/kg, 60 min).
`CCCCNCCc1c[nH]c2cccc(O)c12.O=C(O)/C=C/C(=O)O` — result for “head twitch count”: 4.3 ± 0.9 (C57BL/6J mice; subcutaneous, 0.1 mg/kg).
`CN1C(=O)CN=C(c2ccccc2)c2cc(Cl)ccc21` has a response rate of about 40% (food-maintained responding; Sprague-Dawley rat; intraperitoneal, 3 mg/kg, 30 min, acute dependence model; reference: control).
`CCNCCc1c[nH]c2cccc(O)c12.CCNCCc1c[nH]c2cccc(O)c12.O=C(O)CCC(=O)O` — result for “head twitch response”: 39 ± 6.3 count/30 min (C57BL/6J mice; subcutaneous, 3 mg/kg).
For `CCNC(CC)C(=O)c1ccc2c(c1)OCO2` (stereo not drawn), the ED50 was 2.11 ± 0.13 mg/kg (locomotor activity; C57BL/6J mice, male; subcutaneous, total distance travelled).
